Experimental data of several laboratories.
Every numbered part comes from another study and shows a few of its results, in no order. Positions count from the first letter of the parent shown.

Block 1
Target: Interferon regulatory factor 5, full length, phosphomimetic (IRF5, Homo sapiens, UniProt Q13568-2, residues 1-514, S451D/S453D/S456D/S462D)
Technique: protein-binding microarray
Molecule type: double-stranded DNA, one strand shown
Medium: in vitro
Tested at: 940 nM top
Setting: 60-bp whole probe
Together with: salmon DNA 0.4 mg/ml
Relative to: random background probes
Direction: higher = stronger binding
All sequences stand within: GCCTAGCAC … GTCTTGATTCGCTTGACGCTGCTG
Sequence	fitted relative affinity [z-score]
TCAGATTTCAATTAGAAACTGTGCTAG	0.409
TTAGGTTTCCTTTTACTTTAGTGCTAG	2.52
GACGGACTGGGACTGGGCACGTGCTAG	-0.708
GACGGACTGGGTACTGGGGACGTGCTA	-0.421
GACGGTTTCCTTTTCCTGAAGTGCTAG	1.96
GACGATTCCCGTTTCGAGACGTGCTAG	1.72
TTAGGTATCGACTTTCGGTAAGTGCTA	6.14
GTAGTTTTCATTATTGTTTCGTGCTAG	2.79
GGTTTTCTCTGGTTCTTGCTGTGCTAG	1.86
TTAGGTTTCGACTTTAGGTTAGTGCTA	8.87
TTAGGACTGGGGTAGCGGTTAGTGCTA	-0.0295
GCTGTTCTCAGACTGGGTGCGTGCTAG	0.0468
TTAGGTTTCGGTTCCGGTTGGTGCTAG	14.3
TTAGGTTTCCTCTTCCTTTAGTGCTAG	2.16

Block 2
Target: CCNB2, cyclin fold, Cln2 fusion (human)
Technique: yeast growth competition, sequencing
Medium: yeast
Setting: weak parent motif
Relative to: not given
Direction: higher = stronger binding
Starting sequence: ORC1 docking peptide (human); PRARKRLELGNLG
Variant	normalised enrichment score
PRARGRLELGNLG [K5G]	0.4
PRARKRLELGFLG [N11F]	0.7
PRARKRLELGNLM [G13M]	0.22
PRARKALELGNLG [R6A]	-0.00778
PRARKRLSLGNLG [E8S]	0.0775
PRARKRLNLGNLG [E8N]	0.909
PRARERLELGNLG [K5E]	0.157
PRARKRLTLGNLG [E8T]	0.425
PRARKRLGLGNLG [E8G]	0.541
IRARKRLELGNLG [P1I]	0.253
PRARKRLELGMLG [N11M]	1.08
PRARKRLESGNLG [L9S]	1.08
PRARKRLELGNLE [G13E]	0.253
PRARKRYELGNLG [L7Y]	0.588
PIARKRLELGNLG [R2I]	0.943
PRARKRPELGNLG [L7P]	-0.241

Block 3
Target: Histone acetyltransferase KAT6A, winged helix 1, GST fusion (KAT6A, Homo sapiens, UniProt Q92794, residues 1-85)
Technique: protein binding microarray
Molecule type: double-stranded DNA, one strand shown
Medium: in vitro
Tested at: not given
Setting: 8-mer, flanks averaged, mean of 2 arrays, mostly near background
Relative to: not given
Direction: higher = stronger binding
Residues (chain): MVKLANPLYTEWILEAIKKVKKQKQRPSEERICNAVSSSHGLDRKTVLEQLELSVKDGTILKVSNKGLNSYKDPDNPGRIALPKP
Sequence	E-score
AGAGACAT	-0.142
CGAGTCAA	-0.0896
AAACGGCT	0.173
GTCGCGCA	0.378
GCCTAAAA	-0.169
CATTTAAC	-0.101
AGTTCCTG	-0.208
ACGCAGAG	-0.115
AGGTGCAC	-0.0758
ATACCGCG	0.378
GCAATATA	-0.0186
GCTCACAA	-0.0664
GCTCAACA	-0.0247
GGGGGCAA	0.0778
ACTTTCCC	-0.115
GCACGGAA	0.198

Further values, each from its own experiment
Substance	target	test	test system	conditions	how to read	quantity	value
PhoQ, residues 284 288 289 292 302 303 SSLVEF	PhoP, residues 12 14 15 18 19 LQHIR (Escherichia coli, UniProt P23836)	Sort-seq, measured: YFP reporter	E. coli	PhoQ-PhoP variant library, together with: 10 µM Mg2+	relative to: high Mg2+ state, higher = stronger signaling	fold induction	1.23

Some of these lines once more (block 1):
Sequence	fitted relative affinity [z-score]
GACGATTCCCGTTTCGAGACGTGCTAG	1.72
TTAGGTATCGACTTTCGGTAAGTGCTA	6.14
GTAGTTTTCATTATTGTTTCGTGCTAG	2.79
